Measurements gathered from unrelated publications.
A part holds a random share of what one study measured. Positions count from the first letter of the parent shown.

Sample 1
Target: Interferon regulatory factor 7, full length, phosphomimetic (IRF7, Homo sapiens, UniProt Q92985, residues 1-503, S471D/S472D/S475D/S476D/S477D/S483D/S484D/S487D)
Technique: protein-binding microarray
Form: double-stranded DNA, one strand shown
Medium: in vitro
Concentration: 2200 nM top
Notes: 60-bp whole probe
Added: salmon DNA 0.4 mg/ml
Relative to: random background probes
Reading: higher = stronger binding
Constant ends, left off below: GCCTAGCAC … GTCTTGATTCGCTTGACGCTGCTG
Construct (chain): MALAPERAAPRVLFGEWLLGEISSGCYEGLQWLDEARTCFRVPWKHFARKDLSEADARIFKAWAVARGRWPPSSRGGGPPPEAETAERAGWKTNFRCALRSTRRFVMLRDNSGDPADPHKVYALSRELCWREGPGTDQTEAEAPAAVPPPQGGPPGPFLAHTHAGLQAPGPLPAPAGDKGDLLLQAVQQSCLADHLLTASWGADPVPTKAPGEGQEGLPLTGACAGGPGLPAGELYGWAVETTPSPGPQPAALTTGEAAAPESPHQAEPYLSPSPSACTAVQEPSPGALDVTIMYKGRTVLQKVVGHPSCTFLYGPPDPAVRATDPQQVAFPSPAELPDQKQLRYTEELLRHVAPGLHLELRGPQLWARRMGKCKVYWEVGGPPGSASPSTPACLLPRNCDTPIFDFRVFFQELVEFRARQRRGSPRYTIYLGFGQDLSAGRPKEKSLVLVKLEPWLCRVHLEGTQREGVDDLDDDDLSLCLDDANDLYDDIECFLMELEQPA
Strand | fitted relative affinity [z-score]
TCAGACTTTGGTTTGTAACTGTGCTAG | 0.581
TTAGGTATCCTTATCCTCTAGTGCTAG | 0.948
GTAGGACTGGGGACTGGGTTAGTGCTA | -1.06
TTAGGTATCGGTTACGGTTAGTGCTAG | 0.934
TTGGGACTGGACTTTCGGTTAGTGCTA | 4.74
TTAGAACTGAGTATGGATTAGTGCTAG | -0.372
GACGATATCAGGTTTCGAGACGTGCTA | 2.06
GAAAATCAACCAGGTGGTGTGTGCTAG | 0.902
TTAGGGTTCGGACTGGGTTAGTGCTAG | -0.309
TTAGAACTGGGGAGTGGATTAGTGCTA | -0.319
GTTTTTTTCTATATGCAATGGTGCTAG | 2.63
TTAGGTTCCGGTTTCGGTTAGTGCTAG | 8.68
GACTAACTGAGTCTCGAGACGTGCTAG | -0.0267
GAAGTAATTTCAAACCACAGGTGCTAG | -0.879
GACGATTTCGGACTGGAGACGTGCTAG | 1.43
TTAGGTTCCGATTTCGGTTAGTGCTAG | 4.71
TTAGAACTGAGGTTCGATTAGTGCTAG | -0.317
TTAGGTTTCCTTTCCCTTTCGTGCTAG | 5.74
GACGGTTTCGGTATCCGGACGTGCTAG | 9.35
GACGAACTGAGTATCGAGTCGTGCTAG | 0.325
TCATGCATCTGATTTCTCACTGTGCTA | 1.06
GACGGTTTCCTAGTGCTGACGTGCTAG | 0.899
GACGGACTGTTTTTCCTGACGTGCTAG | 0.777
GACGGACTGGGGTTTTGGGACGTGCTA | -0.612
TCATCTTTCCACTTGTCACTGTGCTAG | 4.59

Sample 2
Target: Sal-like protein 4, full length isoform B (SALL4, Homo sapiens, UniProt Q9UJQ4-2, residues 1-616)
Technique: universal PBM
Form: double-stranded DNA, one strand shown
Medium: in vitro
Concentration: not given
Notes: 8-mer, flanks averaged, mean of replicates
Reading: higher = stronger binding
Construct (chain): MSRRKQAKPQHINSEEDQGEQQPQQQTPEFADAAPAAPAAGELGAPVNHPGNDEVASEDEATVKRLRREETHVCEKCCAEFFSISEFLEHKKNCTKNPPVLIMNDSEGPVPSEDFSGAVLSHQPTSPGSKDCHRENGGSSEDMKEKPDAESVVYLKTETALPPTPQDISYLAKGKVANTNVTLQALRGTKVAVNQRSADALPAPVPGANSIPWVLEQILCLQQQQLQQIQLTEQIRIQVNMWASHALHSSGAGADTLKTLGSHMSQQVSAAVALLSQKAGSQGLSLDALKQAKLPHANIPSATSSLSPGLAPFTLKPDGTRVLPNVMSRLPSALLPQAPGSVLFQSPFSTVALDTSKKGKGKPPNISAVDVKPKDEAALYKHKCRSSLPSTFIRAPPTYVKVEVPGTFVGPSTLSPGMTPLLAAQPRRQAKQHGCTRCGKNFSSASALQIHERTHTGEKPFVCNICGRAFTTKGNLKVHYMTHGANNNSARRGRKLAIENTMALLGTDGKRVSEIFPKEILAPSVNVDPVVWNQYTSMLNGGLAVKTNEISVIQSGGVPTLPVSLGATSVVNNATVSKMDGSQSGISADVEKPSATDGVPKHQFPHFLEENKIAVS
Strand | E-score
AATGTAAC | 0.195
GGACCCGA | -0.223
GTCATTCA | 0.145
CCAAAATC | -0.0535
AACTCGGA | -0.153
AAGTCGTC | -0.161
TGACACAA | 0.169
AGGACGAC | -0.248
TTAGCTAA | 0.211
CTCGTGCC | -0.341
ATGGTCCA | -0.0542
CCAAGCCA | -0.0684
ATAAAGAG | 0.139
GGCCAGGA | -0.236
GCTGGGTA | -0.222
ACTGGTTC | -0.0919
CTGTCCAA | -0.0731
GATCTTAC | 0.0501
ATGACTAA | 0.165

Sample 3
Target: PABPC1L2, full length, GST fusion (mouse, UniProt A0ABA7IW68)
Technique: RNAcompete
Form: RNA
Medium: in vitro
Concentration: 20 nM
Notes: 7-mer, probes averaged, single round
Relative to: mean of 7-mers
Reading: higher = stronger binding
Residues (chain): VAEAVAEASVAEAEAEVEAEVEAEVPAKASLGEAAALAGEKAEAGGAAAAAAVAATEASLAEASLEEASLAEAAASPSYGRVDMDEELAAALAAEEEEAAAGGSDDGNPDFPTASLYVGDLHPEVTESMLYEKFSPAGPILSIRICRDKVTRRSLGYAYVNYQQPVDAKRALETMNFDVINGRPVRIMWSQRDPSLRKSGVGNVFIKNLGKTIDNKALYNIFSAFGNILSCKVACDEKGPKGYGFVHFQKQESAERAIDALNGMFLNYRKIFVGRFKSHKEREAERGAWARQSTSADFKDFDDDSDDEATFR
Strand | 7-mer Z-score
GGCAUGG | 0.204
AUACCAA | 0.135
CGACACA | -0.0337
UCCUUUC | -0.458
CUCCCGU | -0.402
AAUCCUG | -0.267
UUUCUGG | -0.378
CCCAUGG | -0.267
CCAGCUU | -0.206
UUGUGAC | -0.208
GUGAUCG | -0.211
AGUUCAG | -0.186
AAUAGAU | 0.312

Sample 4
Target: ABI1, truncated, D143A, DHFR fusion (Arabidopsis thaliana)
Technique: DHFR PCA, deep sequencing
Medium: yeast
Notes: methotrexate growth selection, single substitutions
Added: (+)-ABA 0.0091 µM
Relative to: wild-type fitted maximum
Reading: higher = stronger binding
Parent: PYL1, truncated, DHFR fusion (Arabidopsis thaliana); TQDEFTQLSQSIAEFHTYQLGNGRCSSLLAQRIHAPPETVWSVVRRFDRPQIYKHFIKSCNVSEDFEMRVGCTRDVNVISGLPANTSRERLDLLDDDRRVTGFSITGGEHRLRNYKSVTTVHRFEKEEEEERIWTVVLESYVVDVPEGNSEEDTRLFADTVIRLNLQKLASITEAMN
Variant | relative binding score [%]
S63D | 40.7
L169K | -2.09
V143I | 0.854
H34W | 10.8
N85I | 70.4
I79N | 8.78
G21N | 9.71
R69G | 14.6
T119I | -9.73
Q7V | 25
E147I | 10.3
I105T | 0.436
I52S | 7.1
D3A | 26.3
C60V | 41.4
E130R | 26.1
D96A | -4.26
L164D | 0.36
E89A | 1.35
I79H | 21.7
R69Q | 26.4
S117E | 4.85
D3H | 20.3
I33A | 1.08
V137Q | 0.961

Sample 5
Target: Histone acetyltransferase KAT6A, winged helix 2, GST fusion (KAT6A, Homo sapiens, UniProt Q92794, residues 85-181)
Technique: protein binding microarray
Form: double-stranded DNA, one strand shown
Medium: in vitro
Concentration: not given
Notes: 8-mer, flanks averaged, mean of 2 arrays, mostly near background
Relative to: not given
Reading: higher = stronger binding
Residues (chain): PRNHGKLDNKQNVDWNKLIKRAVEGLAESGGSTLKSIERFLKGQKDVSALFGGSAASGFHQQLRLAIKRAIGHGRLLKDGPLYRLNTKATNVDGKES
Strand | E-score
AAAGGGGA | -0.158
CGATCTTC | 0.0668
TCTCAAGA | -0.0832
GCCGATCC | 0.0491
AACAGTAA | -0.151
ACGATAGG | -0.192
TTAGAGAA | 0.0306
AGAAGACA | 0.00453
AACCTGCC | 0.0945
CATAGAAA | 0.236
GTCGACTA | 0.154
CGCAGGCG | 0.156
CTCGTGCA | 0.0675
CAGCTCAA | 0.00201
CTTGGTAA | 0.0879
ACCGGTAC | -0.229
ATCTTGCA | 0.172
ACCTGTGC | -0.0644
TCATCTAA | 0.0346

Sample 6
Target: RNA binding protein fox-1 homolog 2, RRM domain, GST-SBP tag (RBFOX2, Homo sapiens, UniProt O43251-10, residues 100-194)
Technique: RNA Bind-n-Seq
Form: RNA
Medium: in vitro
Concentration: 365 nM
Notes: natural RNA segment, single round, ends assumed
Relative to: no-protein control
Reading: higher = stronger binding
Constant ends, left off below: GGGAGUUCUACAGUCCGACGAUC … UGGAAUUCUCGGGUGCCAA
Construct (chain): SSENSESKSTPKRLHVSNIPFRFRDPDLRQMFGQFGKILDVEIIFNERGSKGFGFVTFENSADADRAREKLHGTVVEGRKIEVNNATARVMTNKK
Strand | RBNS enrichment (R)
UCAGCCAGUCAGUGACUGGUGGGUUUGAAUCUGCACUUAUCCCCACCACCUGGGGACCCCCUUGUUGUGUCCAGGACUCCCCCUGUGUCAGUGCUCUGCUCUCACCCUGC | 0.522
CUUCGCAGCUACAGCACAUCUAUUUUUAAUAUUGUGCUGAGCAAGACAGAUCGCUUGCAUAUUUUUAAAAAUUUCUACUACAGAGACAUUCCAAUAAACUCGUUAAGCCU | 0.432
UAUGAUCCUAUUAAAAUAAUAUAGGGUAAAUACCCUACCUCUUAGAAAGGGCAAAAAUGCAAAGAAGCUUUCUUUAAAACUAAAAGGGUUUUUUGGGGGGGGAGUUGGCG | 0.57
UUCAAAUGUAUCAGAUCUCUGUGCCAGAUACUCAUAUUAGUAUACCCUGUUCAAAGGAGAAUGGUGGAUAAUACUGUCUGAGGAAAUCAGAACUUAUUUGAGAAGGAAGC | 0.38
UAGGCAGGGCUGGCUUUCUUAGCGUGUAACUUGUGUAGCAGCACAGGGCCCACACUUAGAAGGACCCCACACUUGGUUCAAGGCUCUGCUAUAGCGGAAAUUCUUAAUAA | 0.223
CUCAUUUCCCCUAAACAACUGGCACAGCAGGUUGACCAUCCUUAAACUGCUGUGAAACAUGCCACGUCCUGCAGGCGUCCAGUCAAUCAUCCAGUGUGCUCCCCUAAAAA | 0.474
CAGAGGAAGGAGUCAGCAUCCUGAGCAUCCAGAAGAUUCAUGGAACCUGAAGUUGCCUCUGGAGCCUCCACUGAGGAACACGUACAGCAGAGUCCUUCAUCCCAUCUCCA | 0.434
UACUCAGUAAAUAUUUGUUGAAAUGAAUGAUAAGAGCAUUGGUCCCCAAGCCAGAGAGCCAGAAGCCAUCACCCAAUGACCGCCCCUUCCUUCCGGUCUACAAGAGCUCU | 0.753
UGUGUAGCUCUAAGAACAUGAAGUAGCUGGUUGCAAGAUGGACCAACUCACCAAGUGUCAGCCCAGGUAGUGAGAAACUUGCAGUAGACAUGGAGCUGGGCUCUUUUAAA | 0.958
AUUUUUAAAUUAACUGUUUUGAGCUUUGAAUACUUAAGGCUUUAGAGGGAGAACCCAAUUUUCAAUUAUGUUGGCUUUUUAUAAAGCUUGAGUUAUGUAAGAUUUAAAUA | 1.28
CCCCACCUGCCAAAUGGGGAUAAAUAAUCUUACCUACCUCCUGGGGGGAGGGGAAGUUCUGAGAAUGGAGUCAUUCUUAGUGUUCAGGUGCUAAAGGUUGUUCUCCUGGG | 0.568
UAAAGAAGAGACUACAUUAUUUAUUUUUUAAAUUAAGCCUUCAAUAAUAAAGUGAGUAUACAAAUUUGAUCUGUCUGUACUAUUAUCAGAGGGUGUUGAGUCUCACAUUG | 0.508

For quick reference, copied from above (sample 1):
Strand | fitted relative affinity [z-score]
TTGGGACTGGACTTTCGGTTAGTGCTA | 4.74
TTAGAACTGAGTATGGATTAGTGCTAG | -0.372
GACGATATCAGGTTTCGAGACGTGCTA | 2.06
GAAAATCAACCAGGTGGTGTGTGCTAG | 0.902
TTAGGGTTCGGACTGGGTTAGTGCTAG | -0.309
TTAGAACTGGGGAGTGGATTAGTGCTA | -0.319
GTTTTTTTCTATATGCAATGGTGCTAG | 2.63
TTAGGTTCCGGTTTCGGTTAGTGCTAG | 8.68
GACTAACTGAGTCTCGAGACGTGCTAG | -0.0267
GAAGTAATTTCAAACCACAGGTGCTAG | -0.879
GACGATTTCGGACTGGAGACGTGCTAG | 1.43
TTAGGTTCCGATTTCGGTTAGTGCTAG | 4.71
TTAGAACTGAGGTTCGATTAGTGCTAG | -0.317
TTAGGTTTCCTTTCCCTTTCGTGCTAG | 5.74
GACGGTTTCGGTATCCGGACGTGCTAG | 9.35
